# Assay results pooled from the literature.
# Every numbered part comes from another study and shows a few of its results, in no order.
# Sequence of UniProt O15294 (whole entry, looked up): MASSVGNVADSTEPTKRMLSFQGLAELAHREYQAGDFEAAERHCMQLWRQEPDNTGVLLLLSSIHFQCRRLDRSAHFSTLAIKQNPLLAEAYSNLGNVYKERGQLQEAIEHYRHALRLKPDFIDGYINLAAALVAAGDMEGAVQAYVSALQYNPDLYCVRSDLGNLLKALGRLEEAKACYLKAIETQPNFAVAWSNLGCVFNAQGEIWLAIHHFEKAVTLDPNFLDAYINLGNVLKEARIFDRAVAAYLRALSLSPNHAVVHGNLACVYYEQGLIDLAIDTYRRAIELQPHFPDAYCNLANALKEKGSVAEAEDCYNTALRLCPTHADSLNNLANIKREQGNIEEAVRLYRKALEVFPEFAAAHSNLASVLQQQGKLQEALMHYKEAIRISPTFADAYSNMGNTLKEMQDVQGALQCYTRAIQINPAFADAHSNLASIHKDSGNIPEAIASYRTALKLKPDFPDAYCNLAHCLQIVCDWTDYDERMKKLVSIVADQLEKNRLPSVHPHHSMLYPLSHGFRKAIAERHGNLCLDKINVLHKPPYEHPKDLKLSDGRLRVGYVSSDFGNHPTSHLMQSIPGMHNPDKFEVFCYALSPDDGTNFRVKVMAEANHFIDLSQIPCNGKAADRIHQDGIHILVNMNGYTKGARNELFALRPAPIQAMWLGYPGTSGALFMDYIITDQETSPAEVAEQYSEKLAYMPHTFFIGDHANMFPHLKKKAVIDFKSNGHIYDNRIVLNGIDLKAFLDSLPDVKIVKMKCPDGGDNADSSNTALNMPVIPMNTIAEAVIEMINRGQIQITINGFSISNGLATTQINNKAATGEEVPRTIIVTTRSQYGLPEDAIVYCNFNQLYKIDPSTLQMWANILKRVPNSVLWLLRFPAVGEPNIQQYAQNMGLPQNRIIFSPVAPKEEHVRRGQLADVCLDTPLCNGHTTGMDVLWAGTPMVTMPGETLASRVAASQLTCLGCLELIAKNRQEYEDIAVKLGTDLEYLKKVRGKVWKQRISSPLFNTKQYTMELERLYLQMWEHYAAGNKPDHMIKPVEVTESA

# Set 1
# Target: Fragile X messenger ribonucleoprotein 1, C-terminal low-complexity region (Fmr1, Mus musculus, UniProt P35922)
# Technique: RNA Bind-n-Seq
# Form: RNA
# Sample: in vitro
# Tested at: 200 nM
# Setting: whole 134-nt RNA, ends assumed
# Together with: 150 mM KCl
# Relative to: input library
# Direction: higher = stronger binding
# Shared flanks, not repeated: GGGAGUUCUACAGUCCGACGAUC … UGGAAUUCUCGGGUGUCAAGG
Oligonucleotide,log2 enrichment
GUCCUGUGCUACACAUCGUAUGUACCGAAUCGGGGCCCCCGGCCCCCGGGGCCCCCGGGAAAGUAUUAUGUUACGCCGUUCGGAUCUGCA,-0.934
AGUCCUGUGCUACACAUCGUAUGUACCGAAUCGGUUUGGAAAAAAAGGUUUUUUUGGAAAGUAUUAUGUUACGCCGUUCGGAUCUGCACU,-1.19
ACCAUGCAGGUGGGCAUCUUUGGGAAGUGGGGCAAGGGGGGGAUAGGGAGGGGGGUAACACUUUGGGAACAGGUGCUCCCAGGUCGUUUC,0.837
CACAGACAACACGCACCCACACAGACACAGAGGGAAGGGAAAGGGAUGGGGACAGGGUGCACAGCAGGGCGGGGUAGGACCCCAGCCCCU,1.02
CCUGUGCUACACAUCGUAUGUACCGAAUCAAACCCCCCCAAAUUUUUUUAAACCCCCAAAAAAGUAUUAUGUUACGCCGUUCGGAUCUGC,0.0565
GUCCUGUGCUACACAUCGUAUGUACCGAAUCGGGUUUUUGGGGUUUUUGGUUUUUGGGAAAGUAUUAUGUUACGCCGUUCGGAUCUGCAC,-0.222
UAACUUUAGAGGAGGAUCUGAUGGAGAUGGCAGUGGACGUGGAUUUGGGGAUGGCUAUAAUGGGUAUGGAGGAGGACCUGGAGGUGGCAA,0.461
CACAGACAACACGCACCCACACAGACACAGAGGGAAGGGUUUGGGAUGGGGACAGGGUGCACAGCAGGGCGGGGUAGGACCCCAGCCCCU,1.41

# Set 2
# Target: PABPC1L2, full length, GST fusion (mouse, UniProt A0ABA7IW68)
# Technique: RNAcompete
# Form: RNA
# Sample: in vitro
# Tested at: 20 nM
# Setting: 7-mer, probes averaged, single round
# Relative to: mean of 7-mers
# Direction: higher = stronger binding
# Target sequence (chain): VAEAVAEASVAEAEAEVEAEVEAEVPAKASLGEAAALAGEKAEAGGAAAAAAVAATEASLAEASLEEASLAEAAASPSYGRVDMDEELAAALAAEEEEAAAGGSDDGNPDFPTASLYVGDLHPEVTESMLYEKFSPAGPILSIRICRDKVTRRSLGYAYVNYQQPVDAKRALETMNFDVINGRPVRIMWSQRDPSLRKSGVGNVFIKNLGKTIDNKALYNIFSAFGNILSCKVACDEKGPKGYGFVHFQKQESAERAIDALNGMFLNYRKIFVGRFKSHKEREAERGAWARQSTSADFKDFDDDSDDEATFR
Oligonucleotide,7-mer Z-score
UUGGUCC,-0.191
AGGUGCA,0.193
ACGGAAU,0.00436
UCGAGAC,-0.0573
ACCGGCC,-0.362
GGCCGGG,-0.13
CGACCAA,0.0605
CCACCAG,-0.159

# Set 3
# Target: Microphthalmia-associated transcription factor, full length (MITF, Homo sapiens, UniProt O75030-10, residues 1-413)
# Technique: protein-binding microarray
# Form: hairpin DNA
# Sample: in vitro
# Tested at: not given
# Setting: whole hairpin DNA, median over replicate spots
# Relative to: not given
# Direction: higher = stronger binding
Oligonucleotide,median fluorescence [a.u.]
GAGGCCTAGCACGTGTTGCCTCCTGGCAACACGTGCTAGGCCTCACACTC,19300
GAGGCCTAGCACGTGCTGCCTCCTGGCAGCACGTGCTAGGCCTCACACTC (5mC at 10),11800
GAGGCCTAGCGCGTGCTGCCTCCTGGCAGCACGCGCTAGGCCTCACACTC,14500
CACTTAGCACATGATTTTGGTCCTCCAAAATCATGTGCTAAGTGACACTC,16000
CACTTAGCACGTCGTTTTGGTCCTCCAAAACGACGTGCTAAGTGACACTC (5mC at 31),4760
GAGGCCCAGCACGTGCTGCCTCCTGGCAGCACGTGCTGGGCCTCACACTC,21800
CACTTAGCCGGTGATTTTGGTCCTCCAAAATCACCGGCTAAGTGACACTC (5mC at 9),4800
GAGGCCTAGCACGCGCTGCCTCCTGGCAGCGCGTGCTAGGCCTCACACTC (5mC at 14),14100

# Other studies, line by line
Sequence,target,test,test system,conditions,how to read,quantity,value
HTPWRPQRNEHHRYV,"UDP-N-acetylglucosamine--peptide N-acetylglucosaminyltransferase 110 kDa subunit (OGT, Homo sapiens, UniProt O15294)","binding, phage display NGS",peptide,"concentration not given, panning round 2",relative to: input library,enrichment fold change,6.2

# For quick reference, copied from above (set 2):
Oligonucleotide,7-mer Z-score
AGGUGCA,0.193
CGACCAA,0.0605
